Published values gathered from unrelated publications.
Each line is one published result; not all experiments were run side by side. “And” joins repeats or separate records; there may be more than shown.
MAPK8: Mitogen-activated protein kinase 8 (MAPK8, Homo sapiens, UniProt P45983)
Chain of UniProt P45983 (whole entry, looked up): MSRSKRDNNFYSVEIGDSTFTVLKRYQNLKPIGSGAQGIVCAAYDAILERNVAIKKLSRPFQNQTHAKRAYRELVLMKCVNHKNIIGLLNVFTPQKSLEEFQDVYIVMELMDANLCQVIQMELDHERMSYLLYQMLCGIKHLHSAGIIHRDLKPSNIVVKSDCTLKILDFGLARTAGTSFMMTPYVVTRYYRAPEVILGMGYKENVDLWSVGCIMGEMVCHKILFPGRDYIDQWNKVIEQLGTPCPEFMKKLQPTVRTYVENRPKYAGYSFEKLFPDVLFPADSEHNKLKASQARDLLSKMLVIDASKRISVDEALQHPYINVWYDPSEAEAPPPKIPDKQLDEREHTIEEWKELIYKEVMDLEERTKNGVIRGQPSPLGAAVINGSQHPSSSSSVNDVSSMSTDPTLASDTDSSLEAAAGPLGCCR
IL1RL2: Interleukin-1 receptor-like 2 (IL1RL2, Homo sapiens, UniProt Q9HB29)
Chain of UniProt Q16539 (whole entry, looked up): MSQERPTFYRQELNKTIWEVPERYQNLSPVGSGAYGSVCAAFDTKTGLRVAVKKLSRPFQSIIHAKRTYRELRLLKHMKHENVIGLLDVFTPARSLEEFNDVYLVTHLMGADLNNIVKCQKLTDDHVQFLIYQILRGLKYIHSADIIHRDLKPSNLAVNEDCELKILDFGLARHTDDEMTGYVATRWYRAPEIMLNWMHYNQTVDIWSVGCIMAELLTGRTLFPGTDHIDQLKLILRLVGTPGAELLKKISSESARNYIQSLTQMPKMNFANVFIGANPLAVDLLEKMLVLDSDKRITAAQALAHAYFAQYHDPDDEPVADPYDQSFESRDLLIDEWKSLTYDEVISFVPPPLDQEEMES
Chain of UniProt Q9HB29 (whole entry, looked up): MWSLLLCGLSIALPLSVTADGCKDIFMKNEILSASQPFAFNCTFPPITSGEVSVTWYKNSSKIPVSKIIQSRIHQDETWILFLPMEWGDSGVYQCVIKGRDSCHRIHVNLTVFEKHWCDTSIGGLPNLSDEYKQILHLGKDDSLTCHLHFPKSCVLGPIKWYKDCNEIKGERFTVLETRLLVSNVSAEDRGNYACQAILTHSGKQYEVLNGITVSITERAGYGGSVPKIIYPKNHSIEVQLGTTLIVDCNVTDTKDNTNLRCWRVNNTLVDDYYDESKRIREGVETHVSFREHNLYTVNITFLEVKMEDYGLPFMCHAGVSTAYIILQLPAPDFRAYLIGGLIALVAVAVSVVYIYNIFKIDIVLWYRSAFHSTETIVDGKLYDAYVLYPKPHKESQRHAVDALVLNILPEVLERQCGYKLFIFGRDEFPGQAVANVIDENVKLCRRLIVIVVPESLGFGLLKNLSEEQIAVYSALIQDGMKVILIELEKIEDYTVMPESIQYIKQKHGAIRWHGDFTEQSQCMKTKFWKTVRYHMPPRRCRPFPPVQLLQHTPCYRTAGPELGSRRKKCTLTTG
Chain of UniProt O15379 (whole entry, looked up): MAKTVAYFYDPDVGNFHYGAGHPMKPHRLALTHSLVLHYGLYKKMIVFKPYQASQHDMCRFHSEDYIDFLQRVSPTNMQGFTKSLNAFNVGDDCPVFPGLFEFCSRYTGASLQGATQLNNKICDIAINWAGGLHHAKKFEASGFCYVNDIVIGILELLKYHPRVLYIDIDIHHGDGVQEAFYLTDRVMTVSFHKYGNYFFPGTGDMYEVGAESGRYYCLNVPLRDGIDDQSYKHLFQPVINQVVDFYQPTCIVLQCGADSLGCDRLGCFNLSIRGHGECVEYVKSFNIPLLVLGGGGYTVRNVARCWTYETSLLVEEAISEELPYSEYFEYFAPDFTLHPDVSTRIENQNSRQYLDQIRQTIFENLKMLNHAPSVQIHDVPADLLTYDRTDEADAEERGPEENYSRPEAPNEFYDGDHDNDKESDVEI
Chain of UniProt Q8IVT5 (whole entry, looked up): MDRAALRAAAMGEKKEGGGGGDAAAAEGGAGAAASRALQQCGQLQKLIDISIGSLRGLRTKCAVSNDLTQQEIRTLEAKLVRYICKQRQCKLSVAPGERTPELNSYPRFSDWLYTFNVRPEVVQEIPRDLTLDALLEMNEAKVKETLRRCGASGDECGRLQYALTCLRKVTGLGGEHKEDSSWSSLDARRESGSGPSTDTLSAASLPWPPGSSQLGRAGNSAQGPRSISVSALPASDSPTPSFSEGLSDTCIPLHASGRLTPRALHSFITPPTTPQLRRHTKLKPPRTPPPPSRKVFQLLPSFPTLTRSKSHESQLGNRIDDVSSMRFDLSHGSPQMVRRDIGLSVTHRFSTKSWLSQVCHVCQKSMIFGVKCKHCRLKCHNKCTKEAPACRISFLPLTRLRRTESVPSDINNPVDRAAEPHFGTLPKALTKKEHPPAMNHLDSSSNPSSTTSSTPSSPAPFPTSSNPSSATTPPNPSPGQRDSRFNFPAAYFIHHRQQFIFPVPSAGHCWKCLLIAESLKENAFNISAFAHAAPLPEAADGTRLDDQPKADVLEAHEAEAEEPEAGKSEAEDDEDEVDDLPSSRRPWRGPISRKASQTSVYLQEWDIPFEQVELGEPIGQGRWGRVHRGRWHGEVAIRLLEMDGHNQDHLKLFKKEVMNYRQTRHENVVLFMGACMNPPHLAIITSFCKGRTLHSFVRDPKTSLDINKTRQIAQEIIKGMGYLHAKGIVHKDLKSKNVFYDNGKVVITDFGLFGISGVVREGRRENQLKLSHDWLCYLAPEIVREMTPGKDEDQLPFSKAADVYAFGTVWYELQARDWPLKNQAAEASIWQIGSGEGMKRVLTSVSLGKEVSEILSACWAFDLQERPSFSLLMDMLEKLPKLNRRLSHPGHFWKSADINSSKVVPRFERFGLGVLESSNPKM
Chain of UniProt P14091 (whole entry, looked up): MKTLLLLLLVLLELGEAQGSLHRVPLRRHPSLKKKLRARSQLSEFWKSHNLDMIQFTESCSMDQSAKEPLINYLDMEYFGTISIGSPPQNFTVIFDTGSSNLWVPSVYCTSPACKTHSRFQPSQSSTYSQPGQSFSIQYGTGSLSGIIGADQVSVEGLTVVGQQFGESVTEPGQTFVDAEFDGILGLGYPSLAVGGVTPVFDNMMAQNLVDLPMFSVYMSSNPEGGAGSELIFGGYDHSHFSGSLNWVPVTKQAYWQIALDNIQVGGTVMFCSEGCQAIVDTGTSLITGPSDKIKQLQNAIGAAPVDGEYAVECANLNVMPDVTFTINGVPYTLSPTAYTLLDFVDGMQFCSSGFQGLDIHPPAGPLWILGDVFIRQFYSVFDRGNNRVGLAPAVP

SMILES	target	test	test system	setting	scale	remaining activity
Cc1cccc(-c2ccc3nc(NC(=O)C4CCCO4)nn3c2)c1 (stereo not shown)	phosphorylase kinase	enzyme activity		10 µM		72%
COC(=O)[C@]1(C(C)C)C=C(C(=O)Nc2cccc(C(=O)Nc3ccc(Nc4nccc(-c5cccnc5)n4)c(C)c3)c2)C(=O)CC1	MAPK8	kinase activity, inhibitor		4.938 µM, unit not given, together with: 10 mM glutathione	baseline: no inhibitor	0.256
CN1CCC[C@@H]1C(=O)N[C@@H](Cc1ccc(-c2ccccc2)cc1)B(O)O	20S proteasome (Plasmodium falciparum, UniProt A0A5K1K7U1+Q8IJT1)	inhibitor, progress curve		10 µM, 90 min	baseline: uninhibited control	14%
CN1C[C@@H](c2c[nH]c3cc(Br)ccc23)NC[C@@H]1c1c[nH]c2cc(Br)ccc12	Cyclin-dependent kinase 2, with cyclin A2 (CDK2, Homo sapiens, UniProt P24941)	enzyme activity, inhibitor		10 µM		97%
Nc1ncc(-c2cc(-c3cnn(CC(F)(F)F)c3)ncc2F)nc1C(=O)NC1CNCC(F)C1 (stereo not shown)	Kinase suppressor of Ras 1 (KSR1, Homo sapiens, UniProt Q8IVT5)	enzyme activity		1 µM	baseline: DMSO control	106%
CN(Cc1cc(C2CC2)on1)C(=O)c1cccc(-c2ccc3c(c2)CCO3)c1	Acetyl-CoA synthetase (Cryptococcus neoformans, UniProt J9VFT1)	enzyme activity, inhibitor, coupled pyrophosphate		1.95 µM		79.5% and 86.1%
COC(=O)c1ccc2c(c1)nc(NC(=O)c1ccccc1)n2CCCc1ccccc1	Histone deacetylase 3 (HDAC3, Homo sapiens, UniProt O15379)	enzyme activity, inhibitor		10 µM		83%
Cc1cnc2nc1Nc1cccc(c1)COC/C=C/COCc1cc(ccc1OCCN1CCOCC1)N2	Epidermal growth factor receptor (EGFR, Homo sapiens, UniProt P00533, L858R/T790M)			concentration not given	baseline: untreated control	35%
Cc1cccc(-c2ccc3nc(NC(=O)C4CCCCC4)nn3c2)c1	phosphorylase kinase	enzyme activity		10 µM		56%
CC(=O)N1c2ccc(-c3ccc(CNC(=O)c4cn5cc(-c6cnc(N)nc6)nc(N6CCOCC6)c5n4)cc3)cc2CC[C@@H]1C	DNA-dependent protein kinase catalytic subunit (PRKDC, Homo sapiens, UniProt P78527)	enzyme activity, inhibitor, radiometric		0.1 µM		83%
COc1ccccc1-c1ccncc1C(=O)Nc1nnc(OCc2ccc(Cl)cc2)s1	DNA polymerase theta, helicase domain (POLQ, Homo sapiens, UniProt O75417)	ATPase activity, ADP-Glo		0.06 µM	baseline: 0 µM cpd	35%
COC(=O)[C@@]1(C)C=C(C(=O)Nc2cccc(C(=O)Nc3ccc(Nc4nccc(-c5cccnc5)n4)c(C)c3)c2)C(=O)CC1	Mitogen-activated protein kinase 14 (MAPK14, Homo sapiens, UniProt Q16539)	enzyme activity, inhibitor		0.5487 µM, unit not given	baseline: vehicle	1.06 and 1.27 and 0.959
N#Cc1cnc2sc(C(=O)O)cc2c1N1CCc2[nH]nc(C(=O)N[C@@H](CC(=O)NCCOCCN3CCOCC3)c3cccc(Br)c3)c2C1	IL1RL2	reporter gene (SEAP), inhibitor, HEK-Blue IL-36R reporter	HEK-Blue IL-36R cells	0.046 µM, 6 h, together with: IL36G 0.01 ng/mL		91.3%
C=C1C[C@@]2(C(=O)OC)C=C(C(=O)Nc3cccc(C(=O)Nc4ccc(Nc5nccc(-c6cccnc6)n5)c(C)c4)c3)C(=O)[C@@H]1C2	MAPK8	kinase activity, inhibitor		4.938 µM, unit not given, together with: 10 mM glutathione	baseline: no inhibitor	0.0652
C[C@](C(=O)NC1CCOCC1)(c1cncnc1)N(C(=O)[C@H](F)Cl)c1ccc(OC(F)(F)Cl)cc1	Cathepsin E (CTSE, Homo sapiens, UniProt P14091)	enzyme activity, inhibitor		10 µM		105%
CC(C)[C@@H]1NC(=O)[C@H](Cc2ccccc2)NC(=O)CSC[C@@H](C(N)=O)NC(=O)[C@H](CCC(=O)O)NC(=O)[C@H](CO)NC(=O)[C@H](Cc2c[nH]c3cccc(Cl)c23)NC(=O)[C@H](C2CCCCC2)NC(=O)[C@H](C(C)C)NC(=O)[C@H](Cc2ccc(O)cc2)NC(=O)[C@H](CC(=O)O)NC(=O)[C@H](Cc2c[nH]c3ccccc23)NC(=O)[C@H](Cc2ccc(N)nc2)NC(=O)[C@H](Cc2c[nH]c3ccc(Cl)cc23)NC(=O)[C@H](CCC(=O)O)NC1=O	IL1RL2	reporter gene (SEAP), inhibitor, HEK-Blue IL-36R reporter	HEK-Blue IL-36R cells	33.33 µM, 6 h, together with: IL-36β 0.3 ng/mL		9.6%

For quick reference, copied from above:
SMILES	target	test	test system	setting	scale	remaining activity
Cc1cccc(-c2ccc3nc(NC(=O)C4CCCO4)nn3c2)c1 (stereo not shown)	phosphorylase kinase	enzyme activity		10 µM		72%
CN(Cc1cc(C2CC2)on1)C(=O)c1cccc(-c2ccc3c(c2)CCO3)c1	Acetyl-CoA synthetase (Cryptococcus neoformans, UniProt J9VFT1)	enzyme activity, inhibitor, coupled pyrophosphate		1.95 µM		79.5% and 86.1%
